{"data": "Measured values gathered from unrelated publications", "note": "Parts stem from different laboratories: compare values within a part only.", "chain of UniProt Q9UK32 (whole entry, looked up)": "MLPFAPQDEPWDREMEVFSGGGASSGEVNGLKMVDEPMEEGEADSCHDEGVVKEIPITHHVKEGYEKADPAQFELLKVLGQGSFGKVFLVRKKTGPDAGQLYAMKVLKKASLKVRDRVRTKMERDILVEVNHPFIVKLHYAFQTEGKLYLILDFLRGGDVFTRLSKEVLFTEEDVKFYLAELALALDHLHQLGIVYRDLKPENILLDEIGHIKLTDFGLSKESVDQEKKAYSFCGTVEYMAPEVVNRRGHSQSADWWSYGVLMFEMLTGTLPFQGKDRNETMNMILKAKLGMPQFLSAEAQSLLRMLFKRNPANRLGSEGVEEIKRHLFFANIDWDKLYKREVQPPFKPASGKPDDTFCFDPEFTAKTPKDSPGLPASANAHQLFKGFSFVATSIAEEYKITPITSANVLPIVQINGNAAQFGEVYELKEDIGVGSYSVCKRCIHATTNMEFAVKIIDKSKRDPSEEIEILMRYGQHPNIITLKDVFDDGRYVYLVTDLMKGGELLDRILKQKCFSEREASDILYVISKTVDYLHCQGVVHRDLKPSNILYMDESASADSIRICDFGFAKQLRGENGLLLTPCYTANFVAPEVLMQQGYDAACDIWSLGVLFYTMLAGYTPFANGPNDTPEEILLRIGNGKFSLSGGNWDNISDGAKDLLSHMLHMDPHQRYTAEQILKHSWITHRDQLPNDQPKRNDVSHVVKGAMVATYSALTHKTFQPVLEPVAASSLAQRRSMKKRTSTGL", "chain of UniProt P23443 (whole entry, looked up)": "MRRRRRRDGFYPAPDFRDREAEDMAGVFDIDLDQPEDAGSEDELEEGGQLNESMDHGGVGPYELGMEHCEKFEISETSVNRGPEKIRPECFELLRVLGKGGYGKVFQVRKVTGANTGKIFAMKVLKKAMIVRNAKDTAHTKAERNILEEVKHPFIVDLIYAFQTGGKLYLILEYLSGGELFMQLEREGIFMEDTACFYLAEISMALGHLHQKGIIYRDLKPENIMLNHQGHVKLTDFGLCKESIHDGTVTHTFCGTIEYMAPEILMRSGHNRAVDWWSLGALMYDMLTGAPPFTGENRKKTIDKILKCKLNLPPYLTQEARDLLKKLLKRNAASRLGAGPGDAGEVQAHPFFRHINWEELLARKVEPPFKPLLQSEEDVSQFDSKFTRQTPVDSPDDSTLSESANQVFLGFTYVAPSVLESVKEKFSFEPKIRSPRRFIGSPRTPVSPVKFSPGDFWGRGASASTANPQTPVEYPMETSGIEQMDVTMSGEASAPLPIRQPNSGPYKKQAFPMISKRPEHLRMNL", "chain of UniProt P42336 (whole entry, unmodified, looked up)": "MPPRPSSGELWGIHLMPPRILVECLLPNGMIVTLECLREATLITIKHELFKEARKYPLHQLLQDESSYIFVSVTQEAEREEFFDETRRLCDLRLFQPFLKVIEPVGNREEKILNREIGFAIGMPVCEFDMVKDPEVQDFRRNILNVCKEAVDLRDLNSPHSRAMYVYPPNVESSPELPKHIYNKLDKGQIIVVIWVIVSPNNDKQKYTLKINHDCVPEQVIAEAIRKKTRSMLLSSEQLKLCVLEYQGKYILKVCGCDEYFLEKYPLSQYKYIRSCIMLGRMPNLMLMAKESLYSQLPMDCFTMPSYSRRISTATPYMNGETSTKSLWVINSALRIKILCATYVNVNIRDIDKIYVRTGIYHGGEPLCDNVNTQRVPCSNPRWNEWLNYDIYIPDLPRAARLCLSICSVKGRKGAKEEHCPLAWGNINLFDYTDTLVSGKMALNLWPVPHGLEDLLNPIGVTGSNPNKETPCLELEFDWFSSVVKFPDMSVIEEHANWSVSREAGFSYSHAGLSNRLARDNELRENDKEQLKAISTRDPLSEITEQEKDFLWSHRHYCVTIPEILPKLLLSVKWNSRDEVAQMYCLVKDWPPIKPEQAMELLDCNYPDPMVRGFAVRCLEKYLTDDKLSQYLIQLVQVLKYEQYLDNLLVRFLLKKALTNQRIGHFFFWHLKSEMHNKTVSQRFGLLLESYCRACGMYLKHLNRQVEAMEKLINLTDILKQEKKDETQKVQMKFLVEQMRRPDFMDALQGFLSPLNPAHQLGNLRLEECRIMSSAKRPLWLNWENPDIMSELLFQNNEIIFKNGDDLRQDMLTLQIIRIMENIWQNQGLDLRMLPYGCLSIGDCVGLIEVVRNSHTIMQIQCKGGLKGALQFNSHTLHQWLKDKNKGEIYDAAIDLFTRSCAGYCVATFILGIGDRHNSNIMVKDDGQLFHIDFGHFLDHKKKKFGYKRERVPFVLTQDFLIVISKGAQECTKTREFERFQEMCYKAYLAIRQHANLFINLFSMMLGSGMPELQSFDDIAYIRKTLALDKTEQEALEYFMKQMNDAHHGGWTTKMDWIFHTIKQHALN", "chain of UniProt Q9H2K8 (whole entry, looked up)": "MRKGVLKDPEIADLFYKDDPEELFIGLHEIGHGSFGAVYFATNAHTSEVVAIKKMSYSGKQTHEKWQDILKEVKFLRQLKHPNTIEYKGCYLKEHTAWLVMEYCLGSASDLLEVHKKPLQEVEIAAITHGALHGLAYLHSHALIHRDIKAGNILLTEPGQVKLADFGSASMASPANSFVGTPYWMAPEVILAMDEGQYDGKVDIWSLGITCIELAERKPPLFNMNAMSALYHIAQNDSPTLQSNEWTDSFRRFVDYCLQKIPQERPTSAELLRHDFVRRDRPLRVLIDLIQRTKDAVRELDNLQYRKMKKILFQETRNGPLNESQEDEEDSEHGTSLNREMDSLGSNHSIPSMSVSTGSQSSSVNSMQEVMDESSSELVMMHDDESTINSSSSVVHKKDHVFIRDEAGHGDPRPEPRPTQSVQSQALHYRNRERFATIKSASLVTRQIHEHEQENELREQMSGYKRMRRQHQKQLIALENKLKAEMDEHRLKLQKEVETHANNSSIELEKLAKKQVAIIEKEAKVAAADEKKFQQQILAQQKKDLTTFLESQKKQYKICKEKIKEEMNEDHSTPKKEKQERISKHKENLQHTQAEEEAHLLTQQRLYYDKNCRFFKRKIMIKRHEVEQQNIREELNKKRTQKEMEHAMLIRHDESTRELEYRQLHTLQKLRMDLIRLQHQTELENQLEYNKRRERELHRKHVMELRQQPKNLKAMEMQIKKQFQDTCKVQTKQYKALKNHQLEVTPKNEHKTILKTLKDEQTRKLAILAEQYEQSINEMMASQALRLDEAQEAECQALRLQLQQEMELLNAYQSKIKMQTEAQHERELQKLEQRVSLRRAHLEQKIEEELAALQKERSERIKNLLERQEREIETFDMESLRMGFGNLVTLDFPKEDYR", "chain of UniProt Q13554 (whole entry, looked up)": "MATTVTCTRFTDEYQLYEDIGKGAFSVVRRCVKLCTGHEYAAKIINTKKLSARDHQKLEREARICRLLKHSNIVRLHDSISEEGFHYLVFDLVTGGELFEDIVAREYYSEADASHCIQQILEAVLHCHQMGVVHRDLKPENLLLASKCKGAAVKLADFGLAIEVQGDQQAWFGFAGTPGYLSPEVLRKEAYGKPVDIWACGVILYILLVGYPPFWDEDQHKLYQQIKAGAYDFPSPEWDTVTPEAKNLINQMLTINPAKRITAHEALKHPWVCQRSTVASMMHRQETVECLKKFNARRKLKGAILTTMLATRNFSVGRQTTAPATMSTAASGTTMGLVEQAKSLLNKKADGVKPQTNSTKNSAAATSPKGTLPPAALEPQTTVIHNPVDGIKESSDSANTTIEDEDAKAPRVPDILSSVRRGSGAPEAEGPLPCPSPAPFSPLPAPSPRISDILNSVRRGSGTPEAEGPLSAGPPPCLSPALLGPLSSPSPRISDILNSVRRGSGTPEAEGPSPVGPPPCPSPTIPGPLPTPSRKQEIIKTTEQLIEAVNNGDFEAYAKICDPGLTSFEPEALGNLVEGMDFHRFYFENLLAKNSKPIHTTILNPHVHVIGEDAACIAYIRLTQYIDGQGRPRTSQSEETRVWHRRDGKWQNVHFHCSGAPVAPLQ"}
{"data": "Sample 1", "target": "Ras GTPase-activating protein-binding protein 1, full length (G3BP1, Homo sapiens, UniProt Q13283)", "method": "RNA Bind-n-Seq", "molecule type": "RNA", "medium": "in vitro", "concentration": "200 nM", "notes": "whole 134-nt RNA, ends assumed", "with": "150 mM KCl", "relative to": "input library", "direction": "higher = stronger binding", "all sequences stand within": "GGGAGUUCUACAGUCCGACGAUC … UGGAAUUCUCGGGUGUCAAGG", "chain of UniProt Q13283 (whole entry, looked up)": "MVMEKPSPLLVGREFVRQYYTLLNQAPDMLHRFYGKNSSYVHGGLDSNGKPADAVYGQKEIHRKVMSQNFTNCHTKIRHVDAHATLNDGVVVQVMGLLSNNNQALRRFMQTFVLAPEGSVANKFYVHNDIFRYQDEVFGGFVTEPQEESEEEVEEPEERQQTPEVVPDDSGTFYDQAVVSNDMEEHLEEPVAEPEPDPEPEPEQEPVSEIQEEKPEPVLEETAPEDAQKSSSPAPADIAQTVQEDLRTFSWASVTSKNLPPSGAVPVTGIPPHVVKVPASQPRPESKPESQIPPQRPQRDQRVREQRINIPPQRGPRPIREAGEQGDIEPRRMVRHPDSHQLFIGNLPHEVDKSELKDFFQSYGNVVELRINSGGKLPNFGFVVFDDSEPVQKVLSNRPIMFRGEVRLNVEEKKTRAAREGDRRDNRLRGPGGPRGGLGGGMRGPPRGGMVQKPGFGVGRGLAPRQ"}
{"Oligonucleotide": "CUCAAGUCCUGUGCUACACAUCGUAUGUACCGAAUCGGAAGGAAGGGAAGGGGAAAGUAUUAUGUUACGCCGUUCGGAUCUGCACUUCCA", "log2 enrichment": -0.185}
{"Oligonucleotide": "UGGCCCUGGUGGCAUGCGGGGAGGAAGAGGUGGCCUCAUGGAUCGUGGUGGUCCCGGUGGAAUGUUCAGAGGUGGCCGCGGUGGAGACAG", "log2 enrichment": 0.0846}
{"Oligonucleotide": "GUCCUGUGCUACACAUCGUAUGUACCGAAUCGGGGUUUUGGGGUUUUGGGGUUUUGGGGAAAGUAUUAUGUUACGCCGUUCGGAUCUGCA", "log2 enrichment": 0.188}
{"Oligonucleotide": "UCCUGUGCUACACAUCGUAUGUACCGAAUCGGGGAAAAAGGGGAAAGGGGAAAAAGGGGAAAGUAUUAUGUUACGCCGUUCGGAUCUGCA", "log2 enrichment": 0.511}
{"Oligonucleotide": "CCUGUGCUACACAUCGUAUGUACCGAAUCGGGGAAAAAAAGGGGUUUUUUUGGGGAGGGGAAAGUAUUAUGUUACGCCGUUCGGAUCUGC", "log2 enrichment": 0.502}
{"Oligonucleotide": "CACAGACAACACGCACCCACACAGACAUAGAGGGAAGGGGUUGGGAUGGGGACAGGGUGCACAGCAGGGCGGGGUAGGACCCCAGCCCCU", "log2 enrichment": 1.8}
{"Oligonucleotide": "CAAGUCCUGUGCUACACAUCGUAUGUACCGAAUCGGCCCCGGGCCCCGGCCCCGGAAAGUAUUAUGUUACGCCGUUCGGAUCUGCACUUC", "log2 enrichment": -0.514}
{"Oligonucleotide": "UUCAGGAUGAAGAUGCAUCAGGGGGCGAUCAAGAUCAGGAAGAAAGAAGAUGGAACAAAAGGACUCAGCAGAUGCUUCAUGGUCUUCAGG", "log2 enrichment": -0.891}
{"data": "Sample 2", "target": "Centromere-binding protein 1, full length, N-terminal tag (CBF1, Saccharomyces cerevisiae, UniProt P17106, residues 1-351)", "method": "protein-binding microarray", "molecule type": "double-stranded DNA, one strand shown", "medium": "in vitro", "concentration": "0.8 µM", "notes": "whole 60-bp probe, no competitor", "direction": "higher = stronger binding", "all sequences stand within": "… GTCTTGATTCGCTTGACGCTGCTG", "chain of UniProt P17106 (whole entry, looked up)": "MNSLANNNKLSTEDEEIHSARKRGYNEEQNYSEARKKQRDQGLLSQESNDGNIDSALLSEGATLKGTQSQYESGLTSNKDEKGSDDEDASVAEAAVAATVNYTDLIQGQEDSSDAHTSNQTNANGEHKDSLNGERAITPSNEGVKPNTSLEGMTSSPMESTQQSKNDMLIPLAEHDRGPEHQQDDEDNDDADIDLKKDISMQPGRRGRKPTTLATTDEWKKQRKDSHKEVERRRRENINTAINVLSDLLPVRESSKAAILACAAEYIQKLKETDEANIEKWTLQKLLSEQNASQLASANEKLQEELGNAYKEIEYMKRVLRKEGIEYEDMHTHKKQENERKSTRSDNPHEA"}
{"Oligonucleotide": "CTAACCACATAATCACACGTGATAAATAGTCCCTTC", "fluorescence intensity": "5260 a.u."}
{"Oligonucleotide": "CTAACAGTGGAAGGTCACGAACGAGATTACCATTTC", "fluorescence intensity": "610 a.u."}
{"Oligonucleotide": "GAACTTCGAGAGAATCACACCATTCAAGTATAATAG", "fluorescence intensity": "555 a.u."}
{"Oligonucleotide": "GAAGTCGCCCAGTGTCATGTGCTTATCCCTTGATAG", "fluorescence intensity": "1520 a.u."}
{"Oligonucleotide": "CTATGGCAAGATGTACACGGGGAGCTCCTTCAATTC", "fluorescence intensity": "490 a.u."}
{"Oligonucleotide": "GAAATAATACAGATTTGTGACGTATAAAGAAACTAG", "fluorescence intensity": "552 a.u."}
{"Oligonucleotide": "CTAGCGCTTTATGTTCATATGATACCGTTTATATTC", "fluorescence intensity": "561 a.u."}
{"Oligonucleotide": "CTACCTATGTAGAGCCTCGTCACCATACCTATATTC", "fluorescence intensity": "623 a.u."}
{"data": "Sample 3", "Structure (SMILES)": "O=C(NCc1ncc(C(F)(F)F)cc1Cl)c1ccc2c(c1)C1(CCS(=O)(=O)CC1)[C@H](C1CC1)N2S(=O)(=O)c1ccc(F)cc1", "observed": "cell-free assay", "method": "competition with immobilised ligand", "concentration": "1 µM"}
{"target": "MYLK3 (Homo sapiens, UniProt Q32MK0)", "remaining binding": "79%"}
{"target": "CDK18 (Homo sapiens, UniProt Q07002)", "remaining binding": "100%"}
{"target": "PIK3CA (Homo sapiens, UniProt P42336, Q546K)", "remaining binding": "76%"}
{"target": "CAMK2B (Homo sapiens, UniProt Q13554)", "remaining binding": "98%"}
{"target": "RPS6KB1 (Homo sapiens, UniProt P23443)", "remaining binding": "64%"}
{"target": "EGFR (Homo sapiens, UniProt P00533, del746-750)", "remaining binding": "97%"}
{"target": "EGFR (Homo sapiens, UniProt P00533, T790M)", "remaining binding": "100%"}
{"target": "TAOK3 (Homo sapiens, UniProt Q9H2K8)", "remaining binding": "99%"}
{"target": "Ribosomal protein S6 kinase alpha-6, N-terminal kinase domain (RPS6KA6, Homo sapiens, UniProt Q9UK32)", "remaining binding": "78%"}
{"data": "Sample 4", "target": "cAMP-dependent protein kinase catalytic subunit alpha (PRKACA, Homo sapiens, UniProt P17612)", "observed": "enzyme activity", "mode": "inhibitor", "concentration": "0.5 µM", "relative to": "control"}
{"SMILES": "O=c1c2ccccc2[nH]c(=S)n1CCN1CCC(=C(c2ccc(F)cc2)c2ccc(F)cc2)CC1", "remaining activity [%]": 101}
{"SMILES": "Nc1ccc2ncnc(NCCc3ccc(Oc4ccccc4)cc3)c2c1", "remaining activity [%]": 88.6}
{"SMILES": "Nc1ncnc2n[nH]c(Nc3ccc(F)cc3)c12", "remaining activity [%]": 96.8}
{"SMILES": "O=C1NC(=O)C(c2cn(CCCn3ccnc3)c3ccccc23)=C1Nc1ccccc1", "remaining activity [%]": 94}
{"SMILES": "Nc1[nH]nc2nc3ccccc3nc12", "remaining activity [%]": 102}
{"SMILES": "COc1cc2ncnc(Nc3ccc(Oc4ccccc4)cc3)c2cc1OC", "remaining activity [%]": 102}
{"SMILES": "Oc1ccc(-c2nc(-c3ccncc3)c(-c3ccc(F)cc3)[nH]2)cc1", "remaining activity [%]": 84.3}
{"SMILES": "Cc1nc(-c2ccccc2)c(-c2ccncc2)o1", "remaining activity [%]": 98.9}
{"note": "For quick reference, copied from above (sample 2):"}
{"Oligonucleotide": "CTAGCGCTTTATGTTCATATGATACCGTTTATATTC", "fluorescence intensity": "561 a.u."}
{"Oligonucleotide": "GAAATAATACAGATTTGTGACGTATAAAGAAACTAG", "fluorescence intensity": "552 a.u."}
{"Oligonucleotide": "GAAGTCGCCCAGTGTCATGTGCTTATCCCTTGATAG", "fluorescence intensity": "1520 a.u."}
{"Oligonucleotide": "CTAACCACATAATCACACGTGATAAATAGTCCCTTC", "fluorescence intensity": "5260 a.u."}
